Experimental data collected from several papers.
A part holds a random share of what one study measured. Positions count from the first letter of the parent shown.

Study 1
Target: Centromere-binding protein 1, full length, N-terminal tag (CBF1, Saccharomyces cerevisiae, UniProt P17106, residues 1-351)
Sequence of UniProt P17106 (whole entry, looked up): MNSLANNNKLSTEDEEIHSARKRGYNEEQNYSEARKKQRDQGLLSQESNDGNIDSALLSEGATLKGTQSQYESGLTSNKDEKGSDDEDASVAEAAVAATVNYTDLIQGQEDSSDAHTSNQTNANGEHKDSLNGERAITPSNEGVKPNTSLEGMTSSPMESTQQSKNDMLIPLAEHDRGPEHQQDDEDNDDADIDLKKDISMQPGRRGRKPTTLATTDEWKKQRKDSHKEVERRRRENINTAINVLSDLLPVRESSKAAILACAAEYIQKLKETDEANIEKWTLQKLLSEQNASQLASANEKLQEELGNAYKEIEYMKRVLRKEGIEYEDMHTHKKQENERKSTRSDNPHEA
Method: protein-binding microarray
Form: double-stranded DNA, one strand shown
Matrix: in vitro
Concentration: 0.8 µM
Setting: whole 60-bp probe, no competitor
Reading: higher = stronger binding
Quantity: fluorescence intensity
CTAATCTCGCTATGACGCACGCCAGTCAATATTTTCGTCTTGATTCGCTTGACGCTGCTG: 532 a.u.
CTACAGTATTTTTTTCACGTGCTTTTTTTTCAATTCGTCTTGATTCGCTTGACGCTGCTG: 5910 a.u.
CTACCATAGATATCTCTCAAACCCTTAGCGGCGTTCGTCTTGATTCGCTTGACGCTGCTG: 506 a.u.
GAACAGACCCTTCAGCACGTGACAGACAGCAAATAGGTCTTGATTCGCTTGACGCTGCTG: 13300 a.u.
GAAATCTGCGTTACTCACATGTGCAGATATCAGTAGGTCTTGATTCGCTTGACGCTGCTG: 1250 a.u.
CTAACTGTACATTCACACGGGAAACGAGAGAAATTCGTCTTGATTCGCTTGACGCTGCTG: 583 a.u.
CTATTTCAGTAAACTGTGATCACGAGTCTGCAATTCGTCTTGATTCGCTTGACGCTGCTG: 5380 a.u.
CTAGCTTAAAAAGGTCACGTGAAGCTCTATTTTTTCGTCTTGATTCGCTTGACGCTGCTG: 20300 a.u.
CTACAAATATAATAGCACCTGAAATGCAAGAACTTCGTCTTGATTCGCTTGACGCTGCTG: 551 a.u.
CTATTGAAAAATAGTCACGTGCTTAACCATTTTTTCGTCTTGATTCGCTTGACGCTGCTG: 25400 a.u.
GAAAGATAGCCCTGTCACCAGTATCGGGTGTTGTAGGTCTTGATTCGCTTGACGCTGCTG: 519 a.u.
CTATTTTTTAGTGCTGATGTAAGCTTAACAAGATTCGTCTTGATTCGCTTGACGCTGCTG: 534 a.u.
GAACAAGAATTTCATCAGGTCTGGTACTTCTAGTAGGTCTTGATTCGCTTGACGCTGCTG: 520 a.u.
TGTACGAAGCTATCTCACGTGACTATAGTAGTTAGGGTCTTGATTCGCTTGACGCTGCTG: 20500 a.u.
GAATCAAGCAAGGTTAATCACATGGCGTGGCTTTAGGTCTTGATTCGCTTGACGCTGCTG: 2120 a.u.
CTAGAGAACTTCTAGCACGTTGTTTACATATCTTTCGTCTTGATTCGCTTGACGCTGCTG: 762 a.u.
GAACTGAATCTCAAGCGCACGCAGTATACCAAATAGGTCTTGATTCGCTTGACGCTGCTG: 532 a.u.
GAAGTTAAAATCTTGTACGTGCGTGAGATGATGTAGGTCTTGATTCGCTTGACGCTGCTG: 584 a.u.
GAATCTGAGTTTTCGCACGTTGCACGAGTCGCATAGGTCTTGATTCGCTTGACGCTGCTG: 782 a.u.
CTACGGTAATATAGTCAGATGAGTCACTACGAGTTCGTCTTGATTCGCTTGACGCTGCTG: 572 a.u.
CTAAGGCACACCCACCACGTGCCTGTTGGCTGATTCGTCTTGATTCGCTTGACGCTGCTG: 4590 a.u.

Study 2
Target: Interferon regulatory factor 5, full length, phosphomimetic (IRF5, Homo sapiens, UniProt Q13568-2, residues 1-514, S451D/S453D/S456D/S462D)
Method: protein-binding microarray
Form: double-stranded DNA, one strand shown
Matrix: in vitro
Concentration: 940 nM top
Setting: 60-bp whole probe
With: salmon DNA 0.4 mg/ml
Baseline: random background probes
Reading: higher = stronger binding
Quantity: fitted relative affinity
All sequences stand within: GCCTAGCAC … GTCTTGATTCGCTTGACGCTGCTG
GACGGTTTCGGGCCTGGGGACGTGCTA: 6.4 z-score
TTAGGACTGGGACTGGTTTAGTGCTAG: -0.517 z-score
TTAGGACTGCTCCTCCTTTAGTGCTAG: -0.142 z-score
GACGGACTGCTTATTCTGACGTGCTAG: -0.462 z-score
ATGCCCCCCAAGAGGGGCGGGTGCTAG: -0.185 z-score
GACGATTGCGGGTATCGAGACGTGCTA: 0.872 z-score
GACTAACTGAGTTTCGAGACGTGCTAG: 3.43 z-score
TTGGATATCAGTATCGATTAGTGCTAG: 4.7 z-score
TTAGGACTGAGTTTCGGTTAGTGCTAG: 7.53 z-score
GCCGGTCTCCTACTGCTGACGTGCTAG: -0.149 z-score
GACGGACTGGGGCATCGGGACGTGCTA: -0.786 z-score
TTAGAACTGAGTATCGAATAGTGCTAG: 0.654 z-score
GACGGTTTCCTTTCCCTTACGTGCTAG: 2.04 z-score
TTAGATTTCAGTTTCGACTAGTGCTAG: 5.94 z-score
TTAGGTATTGACTTTCGGTTAGTGCTA: 3.37 z-score
GATTGGCTGACTTTGGAGATGTGCTAG: -0.361 z-score
TTAGGACTGAGTATCGATTAGTGCTAG: 3.85 z-score
TTAGGTCTCCCACTGCTTTAGTGCTAG: -0.189 z-score
GACGAACTAGGGTTTCGAGACGTGCTA: 0.587 z-score
TGTCTTTTCATTTTCTTTAAGTGCTAG: 2.29 z-score
GACGGTTTTCTTTTCCTGACGTGCTAG: 1.51 z-score
TTATAACTGGGGACTGGATTAGTGCTA: 0.301 z-score
GACGGTTCCCTTTTACTGACGTGCTAG: 0.834 z-score
GACGGTTTCGGGACGGGGGACGTGCTA: 10.2 z-score
TCAGCTCTCTGGACTGTGACTGTGCTA: -0.0219 z-score

Study 3
Target: RING finger protein unkempt homolog, zinc fingers 1-6, GST-SBP tag (UNK, Homo sapiens, UniProt Q9C0B0, residues 30-357)
Sequence of UniProt Q9C0B0 (30-357, looked up): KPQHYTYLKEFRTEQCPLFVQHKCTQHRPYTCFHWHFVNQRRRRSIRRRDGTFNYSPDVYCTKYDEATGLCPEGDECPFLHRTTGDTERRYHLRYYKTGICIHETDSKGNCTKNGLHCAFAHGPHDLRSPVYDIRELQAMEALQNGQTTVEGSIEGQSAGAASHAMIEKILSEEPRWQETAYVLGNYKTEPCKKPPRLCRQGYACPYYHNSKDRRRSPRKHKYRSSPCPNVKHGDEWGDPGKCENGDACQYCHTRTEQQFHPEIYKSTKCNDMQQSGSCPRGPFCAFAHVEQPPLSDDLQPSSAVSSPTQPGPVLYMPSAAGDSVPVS
Method: RNA Bind-n-Seq
Form: RNA
Matrix: in vitro
Concentration: not given
Setting: RNA with constant flanks, human and mouse sites, ends assumed
Baseline: input RNA pool
Reading: higher = stronger binding
Quantity: bound/input enrichment
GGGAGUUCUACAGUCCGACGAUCAGAACACAGUUAUGGGUCGCAAGAAGAAGAAGCAGCUGAAGCCGUGGUGCUGGUAUUGUAAUAGAGAUUUUGAUGAUGAGAAGAUCCUUAUUCAGCACCAAAAAGCAAAGCAUUUUAAAUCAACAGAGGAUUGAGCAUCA: 0.385 ratio
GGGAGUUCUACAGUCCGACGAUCCUCGCCUGCCUUGGGCUUUCCCGGAGGCCAGAAGGGAGGUUCACCUGCAGCGAGUGUGCCUCAGGUGUCGCCCGGCACAGUCUGGGGUCUGUGAGGAUGAUGAGAGGACACCUGCACAGCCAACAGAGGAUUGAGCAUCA: 0.114 ratio
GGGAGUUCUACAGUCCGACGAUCUCCCCCAGAUCAAGCUCAGUGUGUUCACCUCCAACAAGCUGCCACUGGACCUUAAGGCUCUGAAAAGCACCCUAGGAUUCCCACUGAUUCGGUUUGAAGAUGCUGUGAUCAAUCUGGAUCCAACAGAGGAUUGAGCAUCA: 0.192 ratio
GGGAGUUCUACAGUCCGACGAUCAUGAACUAACUGGUGUGUGAGAGAAGAAACUGGAGAUCUGAUCCGUGUGUGUGUGGGAGUUGCUUGGAGUCAGGGCUGGGGACAGGGGACAGCAGUGGAGGAAGGAGUGAUGUCCUCAGCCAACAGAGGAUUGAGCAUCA: 0.569 ratio
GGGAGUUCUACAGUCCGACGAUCUAAUCGGGGGUAAACAUUUUUGAAGAUUUAUUCUUUUUGUGUUGCUGGGGUGUAUACAUUUAUGUCUUUGUGAAAUACACUGGUGGUGUCCUUCUUACAAAACUUUUGAAAUAAAAAAAACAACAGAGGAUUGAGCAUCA: 0.348 ratio
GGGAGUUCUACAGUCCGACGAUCGGCAUUUUUUCCCAGAAUUUUAUCUUUUAGAUAUGAUUUUUACAGGUUGACCAAAAUCAAGGGGCUUGGUUUCAUUGUAUGAUCUUCAUUUCUCAAUAUUAAGGGUUUCAUCAAGGCCUUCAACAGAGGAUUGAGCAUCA: 0.227 ratio
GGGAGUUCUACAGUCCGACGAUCUUUGGAAGAAAUGUAUUUGCAAUUUCAUAUAUACCAGGCUUGCUCUUUGCAGUGAAUGGGAAGCCUCAUUUUGGGGACCAAGAACCUGUACAAGGAUUUGUGAUGAACUUUUCCAAUGGGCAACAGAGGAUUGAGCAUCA: 0.246 ratio
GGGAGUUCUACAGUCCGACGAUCGAACGAGAAAUGCAAAACCUCAGUCAACAUGGUAGAAAAAAUAAUUGGCCACCUCUUCCUAGCAAUUUUCCUGUCGGACCUUGUUUCUAUCAGGAUUUUUCUGUAGACAUUCCUGUAGAACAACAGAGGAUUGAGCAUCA: 2.42 ratio
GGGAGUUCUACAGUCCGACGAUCGUGAUGUCUUCCAGACUCGGUGCAGUCACCGCCGUGAGUUUCUUGGUGUGACCAUUAUACUUUAGAAAUAGAACUGUCGAGCUGAGAACACGCGGUCCUUUGCUUUUGUUUUGUACUCAGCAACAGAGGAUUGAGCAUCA: 0.216 ratio
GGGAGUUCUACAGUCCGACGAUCAAGUGGUUGCUGCAGAAAGACAAAGACAGGAGGAAGGAGGUUAAACUGAACGAGCGCAUUAUAGCUACUUCCCAAGGACUACUGAUUCGCUCUGUUCAAGAUUCUGACCAAGGACUCUACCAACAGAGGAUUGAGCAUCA: 0.266 ratio
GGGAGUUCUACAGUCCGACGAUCCAAGGAGUAAUAGAAGAGAAUGAAGUUUAUAGUAACACUCUAGCUGGAGUCUGGGUGACAACUGGCAGCACUCCAGUACUGAGAAGAAACCGGAUACACAGUGGCAAGCAGGUUGGUGUUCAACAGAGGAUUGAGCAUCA: 4.03 ratio

Study 4
Target: CCNA1, cyclin fold, Cln2 fusion (human)
Method: yeast growth competition, sequencing
Matrix: yeast
Setting: weak parent motif
Baseline: not given
Reading: higher = stronger binding
Quantity: normalised enrichment score
Parent: SLBP docking peptide (human); ARYKRKLLINDFG; partner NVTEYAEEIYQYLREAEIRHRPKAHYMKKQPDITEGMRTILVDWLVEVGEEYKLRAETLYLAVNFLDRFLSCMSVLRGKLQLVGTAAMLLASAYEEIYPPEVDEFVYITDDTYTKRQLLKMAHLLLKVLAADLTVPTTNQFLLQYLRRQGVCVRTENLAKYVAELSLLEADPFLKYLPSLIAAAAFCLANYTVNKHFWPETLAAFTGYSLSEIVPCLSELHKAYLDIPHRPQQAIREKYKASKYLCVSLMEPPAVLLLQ
ARYKRKLGINDFG [L8G]: 0.291
ARYKRKLLINDFA [G13A]: -0.0919
MRYKRKLLINDFG [A1M]: 0.422
ARYKRKLLINDKG [F12K]: 0.0412
ACYKRKLLINDFG [R2C]: -0.00711
ARYKRKLLINTFG [D11T]: 0.486
ARYKRKLLINDNG [F12N]: 0.238
ARYKRKLLTNDFG [I9T]: 0.357
ARYRRKLLINDFG [K4R]: 0.134
APYKRKLLINDFG [R2P]: 0.67
ARYKRKLLISDFG [N10S]: 0.474
ARYKRGLLINDFG [K6G]: 0.501
ARYKRKLLINQFG [D11Q]: 0.341
ARYKRKLLINDSG [F12S]: 0.412
ARPKRKLLINDFG [Y3P]: 0.181
ARYKRKNLINDFG [L7N]: 0.466
ARYWRKLLINDFG [K4W]: 0.679
ARYKRKLLINDEG [F12E]: 0.277
ARYKRKLLINIFG [D11I]: 0.0147
ARYKRKLLINGFG [D11G]: 0.359
ARYKRKLTINDFG [L8T]: 0.361
ARYKKKLLINDFG [R5K]: 0.36
ARYKRKLLINDGG [F12G]: 0.385
ARYKRKDLINDFG [L7D]: 0.137
PRYKRKLLINDFG [A1P]: 0.431

Excerpt of the above (study 4):
ACYKRKLLINDFG [R2C]: -0.00711
ARYKRKLLINTFG [D11T]: 0.486
ARYKRKLLINDNG [F12N]: 0.238
ARYKRKLLTNDFG [I9T]: 0.357
ARYRRKLLINDFG [K4R]: 0.134
APYKRKLLINDFG [R2P]: 0.67
ARYKRKLLISDFG [N10S]: 0.474
ARYKRGLLINDFG [K6G]: 0.501
ARYKRKLLINQFG [D11Q]: 0.341
